Experimental data collected from several papers.
Lines come from different studies, so protocols differ. ± gives the spread as reported.
Route: intravenous

Compound	system	setting	tissue uptake [%ID/g]
CCCC[C@H](NC(=O)[C@H](Cc1cccs1)NC(=O)[C@H](Cc1c[nH]cn1)NC(=O)CCNC(=O)[C@@H](NC(=O)[C@H](C)NC(=O)[C@H](Cc1c[nH]c2ccccc12)NC(=O)[C@H](CCC(N)=O)NC(=O)[C@H](Cc1cccs1)NC(=O)CN1CCC(NC(=O)CN(CCN(CCN(CC(=O)O)CC(=O)O)CC(=O)O)CC(=O)O)CC1)C(C)C)C(N)=O [indium-111 labelled]	Swiss nu/nu mouse, male, PC-3 tumour xenograft, pancreas	10 pmol, 1 h	14.7 ± 3.8
N=C(N)NCCC[C@@H]1NC(=O)[C@H](CCCCNC(=O)CCOCCOCCOCCOCCNC(=O)CC[C@H](NC(=O)CCOCCOCCOCCOCCNC(=O)CC[C@H](NC(=O)CN2CCN(CC(=O)O)CCN(CC(=O)O)CCN(CC(=O)O)CC2)C(=O)NCCOCCOCCOCCOCCC(=O)N[C@@H](CCC(=O)NCCOCCOCCOCCOCCC(=O)NCCCC[C@@H]2NC(=O)[C@@H](Cc3ccccc3)NC(=O)[C@H](CC(=O)O)NC(=O)CNC(=O)[C@H](CCCNC(=N)N)NC2=O)C(=O)NCCOCCOCCOCCOCCC(=O)NCCCC[C@@H]2NC(=O)[C@@H](Cc3ccccc3)NC(=O)[C@H](CC(=O)O)NC(=O)CNC(=O)[C@H](CCCNC(=N)N)NC2=O)C(=O)NCCOCCOCCOCCOCCC(=O)NCCCC[C@@H]2NC(=O)[C@@H](Cc3ccccc3)NC(=O)[C@H](CC(=O)O)NC(=O)CNC(=O)[C@H](CCCNC(=N)N)NC2=O)NC(=O)[C@@H](Cc2ccccc2)NC(=O)[C@H](CC(=O)O)NC(=O)CNC1=O [indium-111 labelled]	athymic nude mouse U-87 MG xenograft, liver	1 h, with: RGD2 co-injected 14 mg/kg	0.7
CSCC[C@H](NC(=O)[C@H](CC(C)C)NC(=O)[C@H](Cc1c[nH]cn1)NC(=O)CNC(=O)[C@@H](NC(=O)[C@H](C)NC(=O)[C@H](Cc1c[nH]c2ccccc12)NC(=O)[C@H](CCC(N)=O)NC(=O)[C@H](CC(N)=O)NC(=O)CNC(=O)[C@H](Cc1ccc(O)cc1)NC(=O)[C@H](CCCNC(=N)N)NC(=O)[C@H](CCC(N)=O)NC(=O)[C@@H]1CCCN1C(=O)CN1CCN(CC(=O)O)CCN(CC(=O)O)CCN(CC(=O)O)CC1)C(C)C)C(N)=O [indium-111 labelled]	Swiss nu/nu mouse, male, PC-3 tumour xenograft, tumour	10 pmol, 4 h	1.4 ± 0.4
CCCC[C@H](NC(=O)CNC(=O)CNC(=O)CNC(=O)c1ccc(NN)nc1)C(=O)N[C@H]1CC(=O)NCCCC[C@@H](C(N)=O)NC(=O)[C@H](Cc2c[nH]c3ccccc23)NC(=O)[C@H](CCCNC(=N)N)NC(=O)[C@@H](Cc2ccccc2)NC(=O)[C@H](Cc2c[nH]cn2)NC1=O [technetium-99m labelled]	C57 mouse, B16/F1 melanoma, blood	0.037 MBq, 2 h	0.07 ± 0.01
N=C(N)NCCC[C@@H]1NC(=O)[C@H](CC(=O)NC23CNCCNCC(N)(CNCCNC2)CNCCNC3)NC(=O)[C@@H](Cc2ccccc2)NC(=O)[C@H](CC(=O)O)NC(=O)CNC1=O [copper-64 labelled]	Nu/Nu mouse, male, tumour-bearing, bone	10 µCi, 4 h	0.23 ± 0.12
N=C(N)NCCC[C@@H]1NC(=O)[C@H](CCCCNC(=O)CNC(=O)CNC(=O)CNC(=O)CC[C@H](NC(=O)CNC(=O)CNC(=O)CNC(=O)c2ccc(NN=Cc3ccccc3S(=O)(=O)O)nc2)C(=O)NCC(=O)NCC(=O)NCC(=O)NCCCC[C@@H]2NC(=O)[C@@H](Cc3ccccc3)NC(=O)[C@H](CC(=O)O)NC(=O)CNC(=O)[C@H](CCCNC(=N)N)NC2=O)NC(=O)[C@@H](Cc2ccccc2)NC(=O)[C@H](CC(=O)O)NC(=O)CNC1=O [technetium-99m labelled]	athymic nu/nu mouse, female, MDA-MB-435 xenograft, liver	30 min	3.28 ± 0.44
CSCC[C@H](NC(=O)[C@H](CC(C)C)NC(=O)[C@H](Cc1c[nH]cn1)NC(=O)CNC(=O)[C@@H](NC(=O)[C@H](C)NC(=O)[C@H](Cc1c[nH]c2ccccc12)NC(=O)[C@H](CCC(N)=O)NC(=O)CCCCCNC(=O)CNC(=O)CNC(=O)CNC(=O)CSC(C)=O)C(C)C)C(N)=O [technetium-99m labelled]	Swiss mouse, spleen	18.5 MBq, 240 min	0.73 ± 0.07
N=C(N)NCCC[C@@H]1NC(=O)[C@H](CCCCNC(=O)CC[C@H](NC(=O)[C@H](CCCCNC(=O)c2ccc(NN)nc2)NC(=O)c2ccc(NN)nc2)C(=O)NCCCC[C@@H]2NC(=O)[C@@H](Cc3ccccc3)NC(=O)[C@H](CC(=O)O)NC(=O)CNC(=O)[C@H](CCCNC(=N)N)NC2=O)NC(=O)[C@@H](Cc2ccccc2)NC(=O)[C@H](CC(=O)O)NC(=O)CNC1=O [technetium-99m labelled]	athymic nude mouse, female, U-87 MG xenograft, tumor	0.1 MBq, 1 h	3.78 ± 0.81

A few entries again:
Compound	system	setting	tissue uptake [%ID/g]
CSCC[C@H](NC(=O)[C@H](CC(C)C)NC(=O)[C@H](Cc1c[nH]cn1)NC(=O)CNC(=O)[C@@H](NC(=O)[C@H](C)NC(=O)[C@H](Cc1c[nH]c2ccccc12)NC(=O)[C@H](CCC(N)=O)NC(=O)CCCCCNC(=O)CNC(=O)CNC(=O)CNC(=O)CSC(C)=O)C(C)C)C(N)=O [technetium-99m labelled]	Swiss mouse, spleen	18.5 MBq, 240 min	0.73 ± 0.07
